Assay results gathered from unrelated publications.
A part holds a random share of what one study measured.

Series 1
Target: Histone acetyltransferase KAT6A, winged helix 1, GST fusion (KAT6A, Homo sapiens, UniProt Q92794, residues 1-85)
Method: protein binding microarray
Molecule type: double-stranded DNA, one strand shown
Medium: in vitro
Tested at: not given
Setting: 8-mer, flanks averaged, mean of 2 arrays, mostly near background
Reference: not given
Direction: higher = stronger binding
Target sequence (chain): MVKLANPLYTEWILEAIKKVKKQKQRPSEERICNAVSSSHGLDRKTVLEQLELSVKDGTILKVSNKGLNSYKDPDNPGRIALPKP
`ACTTACCT` gave an E-score of -0.215.
The E-score of `AGGGAGAC` is reported as -0.0757.
With `AGAGCCGA` the E-score was 0.202.
`ACCTTCAT` has an E-score of -0.0361.
`AAGAAGCA` gave an E-score of -0.0869.
`AGCCGGAT` gave an E-score of 0.0992.

Series 2
Target: Probable WRKY transcription factor 11, DNA-binding domain (WRKY11, Arabidopsis thaliana, UniProt Q9SV15, residues 228-325)
Method: DNA-protein interaction ELISA
Molecule type: double-stranded DNA, one strand shown
Medium: in vitro, bacterial lysate
Tested at: not given
Setting: whole dsDNA probe, crude lysate protein
Reference: highest signal in screen
Direction: higher = stronger binding
Construct (chain): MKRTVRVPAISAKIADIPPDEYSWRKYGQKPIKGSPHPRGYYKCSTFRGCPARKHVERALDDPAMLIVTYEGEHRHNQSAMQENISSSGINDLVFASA
For `AAAAAACGCCTTATGCCTCCCGCTCGAAAA`, the relative absorbance was 18.7 % of maximum.
`AAAAAATCGCGTCCGTGCTCAATCCAAAAA` gave a relative absorbance of 12.7 % of maximum.
The relative absorbance of `AAAAAAAGTAGTTACTGCGAAAGTCTAAAA` is reported as 17.9 % of maximum.
`AAAAAATCTAGGGGTACCTATTTGGCAAAA` gave a relative absorbance of 17 % of maximum.

Series 3
Target: Centromere-binding protein 1, full length, N-terminal tag (CBF1, Saccharomyces cerevisiae, UniProt P17106, residues 1-351)
Chain of UniProt P17106 (whole entry, looked up): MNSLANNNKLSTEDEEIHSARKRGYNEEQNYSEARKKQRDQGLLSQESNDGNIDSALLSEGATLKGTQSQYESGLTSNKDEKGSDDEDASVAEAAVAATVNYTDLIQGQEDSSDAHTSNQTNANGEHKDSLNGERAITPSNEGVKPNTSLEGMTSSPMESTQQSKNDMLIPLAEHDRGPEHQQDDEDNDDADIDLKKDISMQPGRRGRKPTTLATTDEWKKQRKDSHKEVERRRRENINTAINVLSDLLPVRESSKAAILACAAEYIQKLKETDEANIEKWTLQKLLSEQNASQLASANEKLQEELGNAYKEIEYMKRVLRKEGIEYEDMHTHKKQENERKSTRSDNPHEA
Method: protein-binding microarray
Molecule type: double-stranded DNA, one strand shown
Medium: in vitro
Tested at: 0.8 µM
Setting: whole 60-bp probe, no competitor
Direction: higher = stronger binding
All sequences stand within: … GTCTTGATTCGCTTGACGCTGCTG
The fluorescence intensity of `GAATTCAAGTCTCATCATATGAAATTTCTTTCGTAG` is reported as 551 a.u.
For `CTAATCTATCTAAAAAGCGTGATTTTTCCCACGTTC`, the fluorescence intensity was 659 a.u.
For `GAAAAATGTATGCAGCACATGTTTTTTAGAGTGTAG`, the fluorescence intensity was 728 a.u.
`GAAAGGGACGATAACCATCAGCAGGAAAAACGGTAG` has a fluorescence intensity of 525 a.u.
For `CCTAACTACTATATAATCGTGGTATAGCTTCGTACA`, the fluorescence intensity was 519 a.u.

Mixed results
For `PhoQ, residues 284 288 289 292 302 303 TASMAF`, the fold induction was 2.55 (PhoP, residues 12 14 15 18 19 NQGLL (Escherichia coli, UniProt P23836); Sort-seq, refers to: YFP reporter; E. coli; PhoQ-PhoP variant library, together with: 10 µM Mg2+; reference: high Mg2+ state, higher = stronger signaling).

A few entries again (series 3):
For `CTAATCTATCTAAAAAGCGTGATTTTTCCCACGTTC`, the fluorescence intensity was 659 a.u.
For `GAAAAATGTATGCAGCACATGTTTTTTAGAGTGTAG`, the fluorescence intensity was 728 a.u.
